# Measurements from different studies.
# Each numbered part is a random draw from the data of one study; scales do not carry over between parts.

# Block 1 — technique: RNA Bind-n-Seq; form: RNA; medium: in vitro; tested at: 200 nM; notes: whole 134-nt RNA, ends assumed; with: 150 mM KCl; relative to: input library; reading: higher = stronger binding
# Target: Ras GTPase-activating protein-binding protein 1, full length (G3BP1, Homo sapiens, UniProt Q13283)
# UniProt Q13283, sequence (whole entry, looked up): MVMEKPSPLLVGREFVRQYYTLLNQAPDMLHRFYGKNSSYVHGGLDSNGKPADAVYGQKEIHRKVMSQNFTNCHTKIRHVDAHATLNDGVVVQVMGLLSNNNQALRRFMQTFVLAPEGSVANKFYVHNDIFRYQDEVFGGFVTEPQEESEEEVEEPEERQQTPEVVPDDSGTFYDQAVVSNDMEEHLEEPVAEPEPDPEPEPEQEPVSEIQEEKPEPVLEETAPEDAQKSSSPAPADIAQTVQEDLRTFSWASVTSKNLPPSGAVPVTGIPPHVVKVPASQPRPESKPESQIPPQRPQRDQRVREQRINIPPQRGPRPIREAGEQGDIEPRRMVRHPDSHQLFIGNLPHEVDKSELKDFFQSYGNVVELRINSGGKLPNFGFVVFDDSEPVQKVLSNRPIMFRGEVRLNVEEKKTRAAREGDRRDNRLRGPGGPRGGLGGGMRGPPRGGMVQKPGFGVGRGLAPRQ
# All sequences stand within: GGGAGUUCUACAGUCCGACGAUC … UGGAAUUCUCGGGUGUCAAGG
Sequence,log2 enrichment
GCAGGAAGUAAAAACAGAUGGAAAUGCUUCGGAUAGUGGCAGGGGUGGGGGUUGCUAAGGAAAGGGUGGGAUGGGAGUGGGUAAAGAGUU,1.51
UCCUCAAGUCCUGUGCUACACAUCGUAUGUACCGAAUCGGCGGGCGGGCGGAAAGUAUUAUGUUACGCCGUUCGGAUCUGCACUUCCAGC,-0.367
CCUCAAGUCCUGUGCUACACAUCGUAUGUACCGAAUCGGGGAGGGAGGAGGGAAAGUAUUAUGUUACGCCGUUCGGAUCUGCACUUCCAG,1.27
CACAGACAACACGCACCCACACAGACACAGAGGGAAGGGGUUGGGAUGGGGACAGGGAAAACAGCAGGGCGGGGUAGGACCCCAGCCCCU,1.48
AGUCCUGUGCUACACAUCGUAUGUACCGAAUCGGGGAAAGGGGAGGGGUUUUUGGGGAAAGUAUUAUGUUACGCCGUUCGGAUCUGCACU,0.358
AAGUCCUGUGCUACACAUCGUAUGUACCGAAUCGGUUUUUGGGUUUUUGGUUUUUGGAAAGUAUUAUGUUACGCCGUUCGGAUCUGCACU,-1.32
AUUUUUUGUAUCAAGUCCCUGAAUGGAAGUAUGACGUUGGGUCCCUCUGAAGUUUAAUUCUGAGUUCUCAUUAAAAGAAAUUUGCUUUCA,-2.01
UCAAGUCCUGUGCUACACAUCGUAUGUACCGAAUCGGGUGGGUUUGGGAAAGGGAAAGUAUUAUGUUACGCCGUUCGGAUCUGCACUUCC,0.975

# Block 2 — technique: protein binding microarray; form: double-stranded DNA, one strand shown; medium: in vitro; tested at: not given; relative to: not given; reading: higher = stronger binding
# Target: Histone acetyltransferase KAT6A, both winged helices, GST fusion (KAT6A, Homo sapiens, UniProt Q92794, residues 1-181)
# Notes: 8-mer, flanks averaged, mean of 2 arrays, mostly near background
# Construct (chain): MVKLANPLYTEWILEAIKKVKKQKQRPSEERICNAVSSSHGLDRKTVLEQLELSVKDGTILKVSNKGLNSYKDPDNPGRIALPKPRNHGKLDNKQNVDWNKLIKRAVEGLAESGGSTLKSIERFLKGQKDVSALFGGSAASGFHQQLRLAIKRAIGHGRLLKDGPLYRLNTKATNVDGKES
Sequence,E-score
ACTGCACA,-0.192
ACCAGTGA,-0.111
AAATTATC,0.0172
GCATTCGA,0.0426
AACGGGGC,0.134
AGTTCGAG,-0.0642
GTCGTTAA,-0.0789
TACAGTAA,-0.153

# Block 3 — technique: aptamer microarray, sandwich; form: DNA with 2'F-ANA; medium: in vitro; tested at: 200 nM; with: Cy3 exosite-II aptamer, 400 nM; reading: higher = stronger binding; sequence: GGTTGGTGTGGTTGG
# Target: Prothrombin, mature alpha-thrombin (F2, Homo sapiens, UniProt P00734)
# Notes: whole 15-mer aptamer, many near background
Modification,mean fluorescence intensity [a.u.]
2'F-ANA at 2 7 8 10 15,224
2'F-ANA at 1 2 3 4 5 6 7 11 12 13,78.1
2'F-ANA at 1 2 3 4 5 6 8 9 12 13,105
2'F-ANA at 2 4 5 7 9 10 13,44.4
2'F-ANA at 1 2 5 6 8 11 12 13,75.8
2'F-ANA at 2 8 12 13 14 15,195
2'F-ANA at 2 4 8 9 10 11 12,157
2'F-ANA at 1 2 3 7 9 10 13 14,55.6

# Mixed results
SMILES,species,medium,tested at,time,measurement,result
Cn1ccc2c(-c3ccc(-c4nnco4)cc3)ccnc21,human,microsomes or S9,2 µM,0.5 h,remaining compound,> 99.9%
